{"data": "Assay results pooled from the literature", "note": "± marks the error that the study gave."}
{"Structure (SMILES)": "CC[C@H](C)[C@H](NC(=O)[C@@H](NC(=O)[C@H](CC(=O)O)NC(C)=O)[C@@H](C)O)C(=O)N[C@@H](CCCNC(=N)N)C(=O)N[C@@H](CC(C)C)C(=O)N[C@@H](CC(C)C)C(=O)N[C@@H](Cc1ccccc1)C(=O)N[C@@H](CCC(N)=O)C(=O)N[C@@H](CC(C)C)C(=O)N[C@@H](CCSC)C(=O)N[C@@H](CCCNC(=N)N)C(=O)N1CCC[C@H]1C(=O)N1CCC[C@H]1C(=O)N[C@@H](CC(N)=O)C(=O)N[C@@H](CCSC)C(=O)N[C@H](C(=O)N1CCC[C@H]1C(=O)N[C@@H](C)C(=O)N[C@H](C(=O)N[C@@H](CC(N)=O)C(=O)N[C@@H](C)C(N)=O)C(C)C)[C@@H](C)O", "test": "item: HA-23 tetramer", "test system": "antigen-experienced tetramer+ CD4 T cells, healthy adults, HLA-DRB1*0101", "setting": "dose not given", "measurement": "α4β7− CCR9− cells", "value": "10%"}
{"Structure (SMILES)": "C=C(NC(=O)C(=C)NC(=O)c1csc(C2=NC3c4csc(n4)C4NC(=O)c5csc(n5)C(C(C)(O)C(C)O)NC(=O)C5CSC(=N5)C(=CC)NC(=O)C(C(C)O)NC(=O)c5csc(n5)C3(CC2)NC(=O)C(C)NC(=O)C(=C)NC(=O)C(Cc2ccccc2)NC(=O)C(C(C)CC)NC2C=Cc3c(C(C)O)cc(nc3C2O)C(=O)OC4C)n1)C(N)=O (centres unmarked)", "test": "protein synthesis, coupled transcription-translation, item: luciferase", "test system": "Escherichia coli S30 extract", "setting": "1 h, 37 °C", "measurement": "IC50", "value": "340 ± 20 nM"}
{"Structure (SMILES)": "COc1ccc2c3c([nH]c2c1)CCN(C)CC3", "test": "heroin self-administration", "test system": "Wistar rat", "setting": "intraperitoneal, 40 mg/kg, single", "measurement": "duration of effect", "value": "12 to 14 days"}
{"Structure (SMILES)": "CC[C@H](C)[C@H](NC(=O)[C@H](Cc1ccc(O)cc1)NC(=O)[C@@H]1CCCN1C(=O)[C@H](CCCNC(=N)N)NC(=O)[C@H](CCCNC(=N)N)NC(=O)[C@@H](N)CO[C@@H]1O[C@H](CO[C@H]2O[C@H](CO)[C@H](O)[C@H](O)[C@H]2O)[C@@H](O)[C@H](O)[C@H]1O)C(=O)N[C@@H](CC(C)C)C(=O)O", "test": "6 Hz seizure test", "test system": "CF-1 mouse", "setting": "intracerebroventricular, 30 min, 32 mA corneal stimulation", "measurement": "ED50", "value": "0.0004 nmol"}
{"Structure (SMILES)": "CC(C)C[C@@H]1NC(=O)[C@H](C(C)C)NC(=O)[C@H](CO)NC(=O)CNC(=O)CNC(=O)[C@H](CCCNC(=N)N)NC(=O)[C@@H]2CCCN2C(=O)[C@@H](NC(=O)CC[C@H](NC(=O)c2ccc(N(C)Cc3cnc4nc(N)nc(N)c4n3)cc2)C(=O)O)C(C)(C)SSC[C@@H](C(=O)O)NC(=O)CNC(=O)[C@H]([C@@H](C)O)NC(=O)[C@H](C(C)C)NC1=O", "test system": "rat adjuvant arthritis", "setting": "iv, 1 mg/kg once daily, day 14", "measurement": "liver weight", "value": "5.95 ± 0.195 g"}
{"Structure (SMILES)": "O=C(O)CCn1c(=O)oc2cc(Cl)c(Cl)cc21", "test system": "rat, plasma", "setting": "dose not given", "measurement": "total tryptophan level", "value": "70 µM"}
{"Structure (SMILES)": "COC(=O)C[C@](O)(CCCC(C)(C)OC(C)=O)C(=O)O[C@@H]1C(OC)=C[C@]23CCCN2CCc2cc4c(cc2[C@H]13)OCO4", "test": "western blot", "test system": "BALB/c nude mouse, KP-4 xenograft, tumour", "setting": "5.4 mg/kg", "how to read": "relative to: vehicle", "measurement": "MCL-1 protein level", "value": "decreased"}
{"Structure (SMILES)": "COc1ccc([N+](=O)[O-])cc1NC(=O)CCC(=O)[O][Zn][O]C(=O)CCC(=O)Nc1cc([N+](=O)[O-])ccc1OC.c1ccncc1", "test": "ABTS scavenging", "setting": "125 µg/mL", "measurement": "inhibition", "value": "68.3%"}
{"Structure (SMILES)": "CCOC(=O)Nc1ccc2c(c1)CN1C(=S)N(c3ccc(C#N)c(C(F)(F)F)c3)C(=O)C1C2 (centres unmarked)", "test system": "mouse, 22Rv1 orthotopic xenograft", "setting": "intravenous, 25 mg/kg/day", "how to read": "relative to: vehicle", "measurement": "reduction of tumour weight", "value": "49.4%"}
{"Structure (SMILES)": "O=C(O)/C=C/c1ccc(O)cc1", "setting": "1000 µg/mL", "measurement": "DPPH radical scavenging", "value": "85.8 ± 0.3%"}
{"Structure (SMILES)": "C[C@@H](NC(=O)[C@@H](CCC(N)=O)NC(=O)[C@@H](C)NC(=O)[C@@H](CCCCN)NC(=O)[C@@H](CCC(N)=O)NC(=O)[C@@H](C)NC(=O)[C@@H](CCCCN)NC(=O)[C@@H](CCC(N)=O)NC(=O)[C@@H](C)NC(=O)[C@@H](CCC(N)=O)NC(=O)[C@@H](CCCCN)NC(=O)[C@@H](C)NC(=O)[C@@H](CCC(N)=O)NC(=O)[C@@H](CCCCN)NC(=O)[C@@H](C)NC(=O)[C@@H](CCC(N)=O)NC(=O)[C@@H](C)NC(=O)[C@@H](CCCCN)NC(=O)[C@@H](CCC(N)=O)NC(=O)[C@@H](C)NC(=O)[C@@H](CCCCN)NC(=O)[C@@H](CO)NC(=O)[C@@H](Cc1ccc(O)cc1)NC(=O)CNC(=O)CNC(=O)CN)C(=O)N[C@H](CCCCN)C(=O)N[C@H](CCC(N)=O)C(=O)N[C@H](C)C(=O)N[C@H](CCCCN)C(=O)N[C@H](CCC(N)=O)C(=O)O", "test system": "human IAPP fibrils", "setting": "1 h, room temperature", "how to read": "relative to: 1 M NaCl over PBS", "measurement": "binding ratio", "value": 0.3}
{"Structure (SMILES)": "C[C@]12CC[C@H](OC(=O)NC3CCNCC3)C[C@H]1CC[C@@H]1[C@@H]2CC[C@]2(C)[C@@H](c3ccc(=O)oc3)CC[C@]12O", "test system": "mouse HepG2 xenograft", "setting": "intravenous, 2 mg/kg every other day, 3 weeks", "measurement": "tumour mass decrease", "value": "84.8%"}
{"Structure (SMILES)": "CC(C)C[C@H](NC(=O)[C@H](C)NC(=O)CNC(=O)[C@H](CO)NC(=O)CNC(=O)[C@H](CCCNC(=N)N)NC(=O)[C@H](CCCNC(=N)N)NC(=O)[C@H](CCCNC(=N)N)NC(=O)[C@H](CCC(N)=O)NC(=O)[C@H](CCCNC(=N)N)NC(=O)[C@H](CCCNC(=N)N)NC(=O)[C@H](CCCCN)NC(=O)[C@H](CCCCN)NC(=O)[C@H](CCCNC(=N)N)NC(=O)CNC(=O)[C@@H](N)Cc1ccc(O)cc1)C(=O)N[C@@H](CO)C(=O)N[C@H](C(=O)N[C@@H](CCC(=O)O)C(=O)N[C@@H](CCCNC(=N)N)C(=O)O)[C@@H](C)O", "test system": "isolated rat heart", "setting": "concentration not given, ischemia/reperfusion", "measurement": "JNK phosphorylation", "value": "decreased"}
{"Structure (SMILES)": "CC[C@H](C)[C@@H]1NC(=O)[C@@H](NC(=O)CNC(=O)c2ccc(F)cc2)CSSC[C@@H]2NC(=O)[C@H](C)NC(=O)CNC(=O)[C@@H]3CCCN3C(=O)[C@@H]3CSSC[C@@H](C(=O)NCC(=O)O)NC(=O)[C@H](Cc4ccc(O)cc4)NC(=O)CNC(=O)[C@H](CC(N)=O)NC(=O)CNC(=O)[C@H](CCCNC(=N)N)NC(=O)[C@H](CSSC[C@H](NC(=O)[C@H](CCCNC(=N)N)NC(=O)[C@H](Cc4ccccc4)NC(=O)[C@H](CC(C)C)NC(=O)[C@H](CC(C)C)NC(=O)[C@H]([C@@H](C)O)NC(=O)CNC(=O)[C@H](CC(C)C)NC(=O)[C@H](CC(=O)O)NC(=O)[C@H]([C@@H](C)O)NC(=O)[C@H](CCCNC(=N)N)NC(=O)[C@H](CCSC)NC(=O)[C@H](CC(N)=O)NC(=O)[C@H](CC(C)C)NC1=O)C(=O)N[C@@H](CCCNC(=N)N)C(=O)N[C@@H](CCCNC(=N)N)C(=O)N[C@@H](CC(=O)O)C(=O)N[C@@H](CO)C(=O)N[C@@H](CC(=O)O)C(=O)N3)NC(=O)[C@H]([C@@H](C)CC)NC2=O [fluorine-18 labelled]", "test": "γ-counting", "test system": "mouse, BxPC-3 xenograft (integrin αvβ6-positive), excised tumour", "setting": "0.5 h post injection", "measurement": "tumour uptake", "value": "2.2 ± 0.5 %ID/g"}
{"Structure (SMILES)": "CC(C)[C@H](N)C(=O)N[C@@H](Cc1ccc(O)cc1)C(=O)N[C@@H](CCCCN)C(=O)N[C@H](C(=O)N[C@@H](CCCCN)C(=O)N[C@H](C(=O)N[C@@H](CCCCN)C(=O)N[C@H](C(=O)N[C@@H](CCCCN)C(=O)N[C@H](C(=O)N[C@@H](CCCCN)C(=O)N[C@H](C(=O)N[C@@H](CCCCN)C(=O)N[C@H](C(=O)N[C@@H](CCCCN)C(=O)N[C@H](C(=O)N[C@@H](CCCCN)C(=O)N[C@H](C(=O)O)[C@@H](C)O)C(C)C)[C@@H](C)O)C(C)C)[C@@H](C)O)C(C)C)[C@@H](C)O)C(C)C", "test system": "human ALκ4 amyloid extract", "setting": "1 h, room temperature", "how to read": "relative to: 1 M NaCl over PBS", "measurement": "binding ratio", "value": 0.017}
{"Structure (SMILES)": "CCOP(=O)(OCC)OCCCCOC(=O)CC1=C(C)C(=Cc2ccc([S+](C)[O-])cc2)c2ccc(F)cc21 (centres unmarked)", "test": "immunoblotting, item: ADAM17", "test system": "nude mice, orthotopic A549 tumour, tumour", "setting": "inhalation, dose not given", "how to read": "relative to: vehicle", "measurement": "protein level reduction", "value": "40%"}
{"Structure (SMILES)": "COC[C@@H](NC(C)=O)C(=O)NCc1ccc(OCc2ccc(OC(F)(F)F)cc2)cc1", "test": "maximal electroshock seizure test", "test system": "mouse", "setting": "ip, time of peak effect", "measurement": "ED50", "value": "8.3 mg/kg"}
{"note": "Excerpt of the above:"}
{"Structure (SMILES)": "COc1ccc2c3c([nH]c2c1)CCN(C)CC3", "test": "heroin self-administration", "test system": "Wistar rat", "setting": "intraperitoneal, 40 mg/kg, single", "measurement": "duration of effect", "value": "12 to 14 days"}
